{"data": "Experimental data pooled from the literature", "note": "Compare with care: the assays were run in different laboratories. ± gives the spread as reported."}
{"Structure (SMILES)": "CC[C@H](C)C(=O)N1CCC(NC(=O)Nc2ccc(OC(F)(F)F)c(F)c2)CC1", "system": "healthy volunteers", "conditions": "oral, 8 mg single dose", "measurement": "subjects with COVID-19 TEAE", "result": "0%"}
{"Structure (SMILES)": "CCCCCCCCCCCCCCCC(=O)N[C@@H](CCC(=O)NCCOCCOCCC(=O)NCCOCCOCCC(=O)NCCCC[C@H](NC(=O)[C@H](CC(=O)O)NC(=O)[C@H](CC(C)C)NC(=O)[C@H](Cc1ccc(O)cc1)NC(=O)[C@H](CCCCN)NC(=O)[C@H](CO)NC(=O)[C@H](Cc1ccc(O)cc1)NC(=O)[C@H](CC(=O)O)NC(=O)[C@H](CO)NC(=O)[C@@H](NC(=O)[C@H](Cc1ccccc1)NC(=O)[C@@H](NC(=O)CNC(=O)[C@H](CCC(N)=O)NC(=O)[C@@H](CO)NC(=O)[C@@H](N)Cc1c[nH]cn1)[C@@H](C)O)[C@@H](C)O)C(=O)N[C@@H](CCCNC(=N)N)C(=O)N[C@@H](CCCNC(=N)N)C(=O)N[C@@H](C)C(=O)N[C@@H](CCC(N)=O)C(=O)N[C@@H](CC(=O)O)C(=O)N[C@@H](Cc1ccccc1)C(=O)N[C@H](C(=O)N[C@@H](CCC(N)=O)C(=O)N[C@@H](Cc1c[nH]c2ccccc12)C(=O)N[C@@H](CC(C)C)C(=O)N[C@@H](CC(C)C)C(=O)N[C@@H](CC(N)=O)C(=O)N[C@H](C(=O)NCC(=O)NCC(=O)N1CCC[C@H]1C(=O)N[C@@H](CO)C(=O)N[C@@H](CO)C(=O)NCC(=O)N[C@@H](C)C(=O)N1CCC[C@H]1C(=O)N1CCC[C@H]1C(=O)N1CCC[C@H]1C(=O)N[C@@H](CO)C(N)=O)[C@@H](C)O)C(C)C)C(=O)O", "assay": "measured: CK", "system": "Sprague-Dawley rat, male", "conditions": "subcutaneous, 500 µg/kg once daily, 14 days", "measurement": "serum enzyme activity", "result": "594 ± 193 U/L"}
{"Structure (SMILES)": "CCc1ccccc1NC(=S)N/N=C/c1ccc(O)cc1O", "target or system": "MCF7", "conditions": "25 µM", "measurement": "viability", "result": "> 98%"}
{"Structure (SMILES)": "CC[C@H](C)[C@H](NC(=O)CNC(=O)[C@H](C)NC(=O)[C@H](CCC(=O)O)NC(=O)[C@@H]1CCCN1C(=O)[C@H](CC(=O)O)NC(=O)[C@H](C)NC(=O)[C@@H](N)CCC(=O)O)C(=O)NCC(=O)N[C@@H](C)C(=O)N[C@H](C(=O)N[C@@H](CC(C)C)C(=O)N[C@@H](CCCCN)C(=O)N[C@H](C(=O)N[C@@H](CC(C)C)C(=O)N[C@H](C(=O)N[C@H](C(=O)NCC(=O)N[C@@H](CC(C)C)C(=O)N1CCC[C@H]1C(=O)N[C@@H](C)C(=O)N[C@@H](CC(C)C)C(=O)N[C@H](C(=O)N[C@@H](CO)C(=O)N[C@@H](Cc1c[nH]c2ccccc12)C(=O)N[C@H](C(=O)N[C@@H](CCCCN)C(=O)N[C@@H](CCCNC(=N)N)C(=O)N[C@@H](CCCCN)C(=O)N[C@@H](CCCNC(=N)N)C(=O)N[C@@H](CCC(N)=O)C(=O)N[C@@H](CCC(N)=O)C(N)=O)[C@@H](C)CC)[C@@H](C)CC)[C@@H](C)O)[C@@H](C)O)C(C)C)C(C)C", "target or system": "human erythrocytes, washed", "conditions": "1 h, 37 °C, 2% v/v RBC suspension", "measurement": "HD50", "result": "8.6 ± 0.3 µmol/L"}
{"Structure (SMILES)": "CC[C@H](C)[C@H](NC(=O)[C@H](CCCCN)NC(=O)[C@H](Cc1ccc(O)cc1)NC(=O)[C@H](CCC(N)=O)NC(=O)[C@H](Cc1c[nH]cn1)NC(=O)[C@@H](NC(=O)[C@H](Cc1ccccc1)NC(=O)[C@H](Cc1c[nH]cn1)NC(=O)[C@@H](NC(=O)[C@@H](NC(=O)CNC(=O)[C@H](CCCNC(=N)N)NC(=O)[C@H](Cc1c[nH]c2ccccc12)NC(=O)[C@H](CC(C)C)NC(=O)[C@H](CO)NC(=O)[C@H](CCC(=O)O)NC(=O)[C@H](CC(C)C)NC(=O)[C@H](CCC(=O)O)NC(=O)[C@H](CC(N)=O)NC(=O)[C@H](CC(C)C)NC(=O)[C@H](CC(=O)O)NC(=O)[C@H](CO)NC(=O)[C@H](CCC(=O)O)NC(=O)[C@@H](NC(=O)[C@H](CC(C)C)NC(=O)[C@H](CCC(N)=O)NC(=O)[C@H](CCC(=O)O)NC(=O)[C@H](CCC(=O)O)NC(=O)[C@H](CC(C)C)NC(=O)[C@@H]1CCCN1C(=O)[C@@H](N)Cc1ccccc1)[C@@H](C)O)[C@@H](C)O)[C@@H](C)O)C(C)C)C(=O)N[C@@H](CCSC)C(=O)N1CCC[C@H]1C(=O)N[C@@H](Cc1ccccc1)C(=O)N[C@@H](CCCNC(=N)N)C(=O)N[C@@H](CCCCN)C(=O)N[C@@H](CC(C)C)C(=O)N[C@H](C(=O)N[C@@H](Cc1ccccc1)C(=O)N[C@@H](CCCCN)C(=O)N[C@@H](CCCNC(=N)N)C(=O)N[C@@H](CCCNC(=N)N)C(=O)N[C@@H](CCCCN)C(=O)N[C@@H](CC(N)=O)C(N)=O)C(C)C", "target or system": "HEK293T", "assay": "WST-8", "conditions": "up to 25 µg/mL, 24 h", "how to read": "baseline: water", "measurement": "viability", "result": "no effect"}
{"Structure (SMILES)": "CC[C@H](C)[C@H](NC(=O)[C@H](CCCN)NC(=O)[C@H](CC(=O)O)NC(=O)[C@H](CC(C)C)NC(=O)C(C)(CC(C)C)NC(=O)[C@@H](NC(=O)[C@H](CO)NC(=O)[C@H](Cc1ccc(O)cc1)NC(=O)[C@H](CC(=O)O)NC(=O)[C@H](CO)NC(=O)[C@@H](NC(=O)[C@H](Cc1ccccc1)NC(=O)[C@@H](NC(=O)CNC(=O)[C@H](CCC(=O)O)NC(=O)C(C)(C)NC(=O)[C@@H](N)Cc1ccc(O)cc1)[C@@H](C)O)[C@@H](C)CC)[C@@H](C)CC)C(=O)N[C@@H](Cc1c[nH]cn1)C(=O)N[C@@H](CCC(N)=O)C(=O)NC(C)(C)C(=O)N[C@@H](CC(=O)O)C(=O)N[C@@H](Cc1ccccc1)C(=O)N[C@H](C(=O)N[C@@H](CCC(=O)O)C(=O)N[C@@H](Cc1ccc(O)cc1)C(=O)N[C@@H](CCCCNC(=O)COCCOCCNC(=O)COCCOCCNC(=O)CC[C@H](NC(=O)CCCCCCCCCCCCCCCCCCC(=O)O)C(=O)O)C(=O)N[C@@H](CC(C)C)C(=O)N[C@@H](CCC(=O)O)C(=O)NCC(=O)NCC(=O)N1CCC[C@H]1C(=O)N[C@@H](CO)C(=O)N[C@@H](CO)C(=O)NCC(=O)N[C@@H](C)C(=O)N1CCC[C@H]1C(=O)N1CCC[C@H]1C(=O)N1CCC[C@H]1C(=O)N[C@@H](CO)C(N)=O)C(C)C (some centres unmarked)", "system": "human, plasma", "conditions": "subcutaneous, 25 mg, single dose, healthy volunteers", "measurement": "Cmax", "result": "2780 ng/mL"}
{"Structure (SMILES)": "CC[C@H](C)[C@H](NC(=O)[C@H](CO)NC(=O)[C@H](Cc1ccc(O)cc1)NC(=O)[C@H](CC(=O)O)NC(=O)[C@H](CO)NC(=O)[C@@H](NC(=O)[C@H](Cc1ccccc1)NC(=O)[C@@H](NC(=O)CNC(=O)[C@H](CCC(=O)O)NC(=O)[C@@H](C)NC(=O)[C@@H](N)Cc1ccc(O)cc1)[C@@H](C)O)[C@@H](C)CC)C(=O)N[C@@H](C)C(=O)N[C@@H](CCSC)C(=O)N[C@@H](CC(=O)O)C(=O)N[C@@H](CCCCN)C(=O)N[C@H](C(=O)N[C@@H](Cc1c[nH]cn1)C(=O)N[C@@H](CCC(N)=O)C(=O)N[C@@H](CCC(N)=O)C(=O)N[C@@H](CC(=O)O)C(=O)N[C@@H](Cc1ccccc1)C(=O)N[C@H](C(=O)N[C@@H](CC(N)=O)C(=O)N[C@@H](Cc1c[nH]c2ccccc12)C(=O)N[C@@H](CC(C)C)C(=O)N[C@@H](CC(C)C)C(=O)N[C@@H](C)C(=O)N[C@@H](CCC(N)=O)C(=O)N[C@@H](CCCCN)C(=O)N1CCC[C@H]1C(=O)N[C@@H](CO)C(=O)N[C@@H](CO)C(=O)NCC(=O)N[C@@H](C)C(=O)N1CCC[C@H]1C(=O)N1CCC[C@H]1C(=O)N1CCC[C@H]1C(=O)N[C@@H](CO)C(N)=O)C(C)C)[C@@H](C)CC", "system": "HF-STZ diabetic mouse", "conditions": "continuous infusion, 100 nmol/kg/day, 4 weeks", "measurement": "cholesterol", "result": "172 ± 4 mg/dL"}
{"Structure (SMILES)": "CCCCCCCCCCCCCCCC(=O)N[C@@H](CCC(=O)NCCCC[C@H](NC(=O)[C@H](CC(=O)O)NC(=O)[C@H](CO)NC(=O)[C@@H](NC(=O)[C@H](Cc1ccccc1)NC(=O)[C@@H](NC(=O)CNC(=O)[C@H](CCC(N)=O)NC(=O)[C@H](C)NC(=O)[C@@H](Cc1ccc(O)cc1)NC(C)=O)[C@@H](C)O)[C@@H](C)O)C(=O)N[C@@H](CO)C(=O)N[C@@H](CCCCN)C(=O)N[C@@H](Cc1ccc(O)cc1)C(=O)N[C@@H](CC(C)C)C(=O)N[C@@H](CC(=O)O)C(=O)N[C@@H](CCC(=O)O)C(=O)N[C@@H](CCCNC(=N)N)C(=O)N[C@@H](C)C(=O)N[C@@H](C)C(=O)N[C@@H](CCC(N)=O)C(=O)N[C@@H](CC(=O)O)C(=O)N[C@@H](Cc1ccccc1)C(=O)N[C@H](C(=O)N[C@@H](CCC(N)=O)C(=O)N[C@@H](Cc1c[nH]c2ccccc12)C(=O)N[C@@H](CC(C)C)C(=O)N[C@@H](CC(C)C)C(=O)N[C@@H](CCC(=O)O)C(=O)NCC(=O)NCC(=O)N1CCC[C@H]1C(=O)N[C@@H](CO)C(=O)N[C@@H](CO)C(=O)NCC(=O)N[C@@H](C)C(=O)N1CCC[C@H]1C(=O)N1CCC[C@H]1C(=O)N1CCC[C@H]1C(=O)N[C@@H](CO)C(N)=O)C(C)C)C(=O)O", "assay": "multiple ascending dose", "system": "human", "conditions": "25 to 150 µg once daily, across doses", "measurement": "median tmax at steady state", "result": "8 to 10 h"}
{"note": "Some of these lines once more:"}
{"Structure (SMILES)": "CC[C@H](C)[C@H](NC(=O)CNC(=O)[C@H](C)NC(=O)[C@H](CCC(=O)O)NC(=O)[C@@H]1CCCN1C(=O)[C@H](CC(=O)O)NC(=O)[C@H](C)NC(=O)[C@@H](N)CCC(=O)O)C(=O)NCC(=O)N[C@@H](C)C(=O)N[C@H](C(=O)N[C@@H](CC(C)C)C(=O)N[C@@H](CCCCN)C(=O)N[C@H](C(=O)N[C@@H](CC(C)C)C(=O)N[C@H](C(=O)N[C@H](C(=O)NCC(=O)N[C@@H](CC(C)C)C(=O)N1CCC[C@H]1C(=O)N[C@@H](C)C(=O)N[C@@H](CC(C)C)C(=O)N[C@H](C(=O)N[C@@H](CO)C(=O)N[C@@H](Cc1c[nH]c2ccccc12)C(=O)N[C@H](C(=O)N[C@@H](CCCCN)C(=O)N[C@@H](CCCNC(=N)N)C(=O)N[C@@H](CCCCN)C(=O)N[C@@H](CCCNC(=N)N)C(=O)N[C@@H](CCC(N)=O)C(=O)N[C@@H](CCC(N)=O)C(N)=O)[C@@H](C)CC)[C@@H](C)CC)[C@@H](C)O)[C@@H](C)O)C(C)C)C(C)C", "target or system": "human erythrocytes, washed", "conditions": "1 h, 37 °C, 2% v/v RBC suspension", "measurement": "HD50", "result": "8.6 ± 0.3 µmol/L"}
